Experimental data from different studies.
Parts stem from different laboratories: compare values within a part only. Positions count from the first letter of the parent shown.

Series 1 — method: RNA Bind-n-Seq; form: RNA; medium: in vitro; concentration: 365 nM; reference: no-protein control; reading: higher = stronger binding
Target: RNA binding protein fox-1 homolog 2, RRM domain, GST-SBP tag (RBFOX2, Homo sapiens, UniProt O43251-10, residues 100-194)
Setting: natural RNA segment, single round, ends assumed
Construct (chain): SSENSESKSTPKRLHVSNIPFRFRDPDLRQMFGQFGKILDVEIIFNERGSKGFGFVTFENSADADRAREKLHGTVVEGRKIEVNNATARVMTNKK
Oligonucleotide	RBNS enrichment (R)
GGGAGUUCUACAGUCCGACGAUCCUGAUACAUUAGCAGCUAUGUAAAUGACCUAAUUGAUAGCAGGUGUAAUAAGACUAUCGUCUUCCUACACAUAGGAGGCUCAUUCUCUGGACACACUAUCACCUAUUACAUGGAAUUCUCGGGUGCCAA	0.335
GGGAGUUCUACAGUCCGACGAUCCUCGCCAGCCUUCCCGUCCUUCAGUUCAACGACAUCUUUGGAGUGUUUUUGUUUUCUCUUCCAAGGGCCGUCCCGUUGUGUUAGGAAGGGUGAGUGGCUGGUUCCAGGGUUGGAAUUCUCGGGUGCCAA	0.415
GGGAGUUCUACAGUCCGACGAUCCAACACUUUUGGGGAAGUCUCAUUUUUGCAUUAGGACAUAUUUUAGGUUAAACAAAAGCAUAUUUUAGAAACAGACAAAAGCCAACUGAAAAUCGUGGAUGAAUAGUUACUGGAAUUCUCGGGUGCCAA	0.773
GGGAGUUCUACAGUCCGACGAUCAAGUGGAUCUUAUCAUUACUGUGAGUGUGAGACACACACACAUACACAACACACUGUAUGUGCAUACAUGAAACACAAACAGCUUUUUACUGAACAGAAUUAUAGACAUUUGGAAUUCUCGGGUGCCAA	0.438
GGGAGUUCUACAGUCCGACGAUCGUGUCUGACGCGGCCACCUCUUUCUGGAGGGGCUGAGGACAGAUGUGCCUGCUUGUGGAGACCAGGCUGGGCCUAAGCGAAGGGUCAUCGCAGCCCCAGCCCGGAGCGUGUGGAAUUCUCGGGUGCCAA	0.86
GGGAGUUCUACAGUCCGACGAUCAGCAAUAGGAGUCAAGUUACUGGUGCCACAGAUCUGGAGGUAUGAUAGGUCAGGGGCUAGGUGUUGAACUUAGUUAAUGGAAGACUGAGAGCAGAACAGGUUUGUCAUCUUGGAAUUCUCGGGUGCCAA	2.18
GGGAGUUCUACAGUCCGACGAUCUCCAAACUGAAAUUAUCUGCUUUCUGCAUUAGAAUGUAAGCCCCCUGAGGGUUGAGUCAGUCUGUCUUGUUUGCUGUGCCACGCCUGAUGCCCAGCCCAGCAGCAUGCUUUGGAAUUCUCGGGUGCCAA	5.6
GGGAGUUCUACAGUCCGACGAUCACACCUAAAUUUAAUUUAUUUUAUUAAAAUAACAUAAUUGAGGGACCAUCAGAUAACUGUAUUUUGUCAGGUGCAAUAAAAACAAAAUUAAAACCCAAAUCAUCAAGAAAUGGAAUUCUCGGGUGCCAA	0.365
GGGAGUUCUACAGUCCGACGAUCGGGGAUAUGGUGGCUCUGUGAUCUGUUUGUCCAUUUGUGUCCAGUGUUGACCUGCGUUACUGGAACUUGGAGCUACCCUGUUUGGUUACCAGUGGACUGUUAGAAAGUAUUGGAAUUCUCGGGUGCCAA	2.67
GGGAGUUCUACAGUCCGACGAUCUGGGAGUGGGGCCAGCCGUGGACAGCUGAGGUUGGGGUCAAUGCCUCCUGGGCACCCUUGCCUCGCCCCAGACCGGCCCGUCCAGUCCCCAUCACACCUCGGCGGCCUUUUGGAAUUCUCGGGUGCCAA	0.232
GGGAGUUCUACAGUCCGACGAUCCCAACUCAGAGCCUGCUGAGCCCAUGCCCAGCCGCAGCAUGCCAGCUGAGCCCCCGGCCUCCCCAGGAACAUGCACGUUCACCCCGCUUCCUCGUGGGUGGCUUUUUUUUUGGAAUUCUCGGGUGCCAA	30.7
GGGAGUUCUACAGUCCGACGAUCCAGAAAAGAAUGAUGUCCCUUUCCUUGCCAUGUCCUUGAGCCUGUCAGUAAUGAACUGGCUGCAAGGGGACAGCACCUCUCAGCCUGCACAGCAGCUUGUCAGAGUGAGAUGGAAUUCUCGGGUGCCAA	0.574

Series 2 — target: ATF2, bZIP domain (human); method: DHFR protein complementation; medium: yeast; reference: wild-type JUN-FOS pair; reading: higher = stronger binding
Setting: single substitutions, most at no-binding floor
Starting sequence: JUN, bZIP domain (human); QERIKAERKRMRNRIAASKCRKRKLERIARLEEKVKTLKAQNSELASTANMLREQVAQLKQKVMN; partner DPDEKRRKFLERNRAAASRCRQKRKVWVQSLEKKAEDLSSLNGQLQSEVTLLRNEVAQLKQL
Substitution	binding fitness
L45S	-1.53 natural log
M51K	-1.39 natural log
R30V	-1.35 natural log
I28D	-1.31 natural log
R30E	-1.29 natural log
Q55A	-1.42 natural log
L31R	-1.51 natural log
K36S	-1.32 natural log
S43K	-1.31 natural log
K34Q	-1.07 natural log
V35C	-1.36 natural log
T48P	-1.47 natural log
A57T	-1.38 natural log
S43A	-1.23 natural log
E54K	-1.47 natural log

Series 3 — target: CCNB1, cyclin fold, Cln2 fusion (human); method: yeast growth competition, sequencing; medium: yeast; setting: weak parent motif; reference: not given; reading: higher = stronger binding
Starting sequence: GMNC docking peptide (human); KNAKRNLSSEFAN
Substitution	normalised enrichment score
KNAKRNLSSEFVN [A12V]	-0.299
KNAKRNLSSERAN [F11R]	0.00165
KNAKRNLSSEFCN [A12C]	0.175
KNAKRNLVSEFAN [S8V]	0.261
KNAKANLSSEFAN [R5A]	0.188
KNAKRNLSKEFAN [S9K]	0.073
KNAKRNLPSEFAN [S8P]	-0.0321
KNAKRNLSSEFWN [A12W]	0.161
KNAKRNLSSECAN [F11C]	0.33
KNAKRLLSSEFAN [N6L]	-0.302
KNAKRNLSSEWAN [F11W]	0.449
KNAKRVLSSEFAN [N6V]	-0.0466
KHAKRNLSSEFAN [N2H]	0.181
KNGKRNLSSEFAN [A3G]	0.221
KNAKCNLSSEFAN [R5C]	-0.0267
KNAKRNLSSWFAN [E10W]	0.0735
KNAKRNLSNEFAN [S9N]	-0.0832
KYAKRNLSSEFAN [N2Y]	0.611
KNAKRNLSWEFAN [S9W]	0.336
KNAKRNASSEFAN [L7A]	0.105
KNAKRNVSSEFAN [L7V]	0.0923
KNWKRNLSSEFAN [A3W]	0.677
KNAKENLSSEFAN [R5E]	0.579
KNAKRNLESEFAN [S8E]	-0.027
KNSKRNLSSEFAN [A3S]	1.43

Series 4 — method: universal PBM; form: double-stranded DNA, one strand shown; medium: in vitro; concentration: 600 nM; reading: higher = stronger binding
Target: Sal-like protein 4, full length isoform A (SALL4, Homo sapiens, UniProt Q9UJQ4, residues 1-1053)
Chain of UniProt Q9UJQ4 (whole entry, looked up): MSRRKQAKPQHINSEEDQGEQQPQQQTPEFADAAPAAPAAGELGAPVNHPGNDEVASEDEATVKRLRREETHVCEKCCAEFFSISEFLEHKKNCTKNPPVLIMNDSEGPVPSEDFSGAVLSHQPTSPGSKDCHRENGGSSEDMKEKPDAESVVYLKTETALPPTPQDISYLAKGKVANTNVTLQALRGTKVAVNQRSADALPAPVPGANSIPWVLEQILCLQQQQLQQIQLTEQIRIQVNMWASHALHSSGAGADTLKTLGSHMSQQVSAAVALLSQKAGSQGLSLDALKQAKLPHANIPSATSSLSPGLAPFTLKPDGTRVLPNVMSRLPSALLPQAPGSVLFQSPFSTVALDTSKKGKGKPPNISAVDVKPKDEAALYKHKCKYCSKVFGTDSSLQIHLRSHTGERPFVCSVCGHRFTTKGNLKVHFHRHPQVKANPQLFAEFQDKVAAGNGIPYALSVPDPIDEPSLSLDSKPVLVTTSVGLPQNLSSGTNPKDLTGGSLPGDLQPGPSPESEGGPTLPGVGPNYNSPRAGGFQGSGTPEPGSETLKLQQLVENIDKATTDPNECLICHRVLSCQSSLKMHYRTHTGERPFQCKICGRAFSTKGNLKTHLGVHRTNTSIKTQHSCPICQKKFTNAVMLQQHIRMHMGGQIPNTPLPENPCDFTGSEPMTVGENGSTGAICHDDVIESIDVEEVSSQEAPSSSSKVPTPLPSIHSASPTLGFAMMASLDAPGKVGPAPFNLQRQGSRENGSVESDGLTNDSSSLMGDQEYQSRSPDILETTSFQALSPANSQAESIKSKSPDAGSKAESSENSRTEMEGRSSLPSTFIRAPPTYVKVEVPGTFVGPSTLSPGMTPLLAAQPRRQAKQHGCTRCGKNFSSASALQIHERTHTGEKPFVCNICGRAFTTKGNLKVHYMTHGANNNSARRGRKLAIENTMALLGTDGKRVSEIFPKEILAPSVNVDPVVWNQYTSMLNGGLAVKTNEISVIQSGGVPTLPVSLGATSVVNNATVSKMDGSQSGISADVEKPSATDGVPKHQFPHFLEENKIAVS
Setting: 8-mer, flanks averaged, mean of replicates
Oligonucleotide	E-score
GTGTACGA	0.0319
ACCAACCC	-0.224
AACGTAGT	0.142
CGTATAGC	-0.0198
ATAGAGTA	0.263
AAGATCCG	-0.171
ACTTTGCA	0.106
GCGAAACC	-0.0755
CAGAGCAA	-0.0499
CCTCGGAC	-0.197
CAAAGCGC	-0.146
AGAGCACT	-0.0174
AATTCCGG	-0.0946
AGCGAAGA	0.039
ACCCGAAA	0.0135
ATGTATTC	0.174
GTCGGCAC	-0.141
AACTTCAA	0.191
AGCCAATA	0.15
TCGCAGCA	-0.0192
ACACGGTG	-0.123
CCCTGAGC	-0.298
CATGGGGA	-0.174
AACTCCCG	-0.0907
CACTGTAG	-0.0111

Series 5 — method: RNA Bind-n-Seq; form: RNA; medium: in vitro; concentration: 100 nM; reference: input RNA pool; reading: higher = stronger binding
Target: RING finger protein unkempt homolog, zinc fingers 1-6, SBP tag (UNK, Homo sapiens, UniProt Q9C0B0, residues 30-357)
Chain of UniProt Q9C0B0 (30-357, looked up): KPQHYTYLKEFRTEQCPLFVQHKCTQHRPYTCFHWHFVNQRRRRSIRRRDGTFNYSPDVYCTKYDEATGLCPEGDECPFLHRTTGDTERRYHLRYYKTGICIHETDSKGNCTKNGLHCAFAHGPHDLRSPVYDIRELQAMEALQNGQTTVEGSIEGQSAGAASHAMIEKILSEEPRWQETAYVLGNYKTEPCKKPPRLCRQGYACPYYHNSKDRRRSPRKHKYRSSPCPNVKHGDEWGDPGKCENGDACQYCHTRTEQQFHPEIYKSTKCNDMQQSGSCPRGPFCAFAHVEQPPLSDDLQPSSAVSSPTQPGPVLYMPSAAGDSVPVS
Setting: RNA with constant flanks, vertebrate orthologous sites, ends assumed
Oligonucleotide	bound/input enrichment [ratio]
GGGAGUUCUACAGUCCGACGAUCAGUACUUAAGCCAACACCUAGUUCUAAAAUGCUAUUUAUUUGUGUCUGUAAGUUUGUACAUAAUAAUACCAACCUCAUUUUUGUUGUGGGGGGGUGGGUUUUGUUUUUUGGGUUUUUUUUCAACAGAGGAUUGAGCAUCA	0.779
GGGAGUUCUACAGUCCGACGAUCUCUCUCACAUAACUGAGUCCAAAAUUGCUAUGAGGGUUUGAAACAUUCAUUAGUUUUGUGUAGAACUACACUGUCAGGUGCUCAAAUACCAUCAUAGCAAGAUCAAAUACCAUCACAGUACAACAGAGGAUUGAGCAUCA	0.477
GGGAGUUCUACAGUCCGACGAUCCAUUGUACCCUGCUGUAUAAUAAACAAUCUUAGACAUUUAUCAGCUGUUGAUACAAAUGUUAGUCCCUAACCACUUUUUAUAUGUUUUAAAUUUUUGAAAUUCAAGUGUACCUGCCAUAACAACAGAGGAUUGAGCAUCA	2.27
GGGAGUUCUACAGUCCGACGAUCGUCCCUCAGUGACAGUAUGCCAUCGGUAGCCGAUUCCCACUCAAGUCAUUUCUCUGAAUUUAGUUGCUCUGACCUAGAAAGCAUGAAAACUUCUUGUAGCCAUGGUUCCAGUGAUUAUCACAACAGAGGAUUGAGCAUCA	0.61
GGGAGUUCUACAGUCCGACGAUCUACUAGUAUCCUACCAGCCUACCAACCUCGCGUCUGUGCACAGCUUCAAACGUUACCGUCUAGCUAGAUUUUUAUUUAAAAUAUGAAAAACUGCUUUUCCCAAGACGUUUUUUAAAAACACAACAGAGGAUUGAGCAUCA	1.33
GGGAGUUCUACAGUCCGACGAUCCGGCAGCAGGUGGGGUCAUUCCACGCCCUAGCCUUGCCUCCCCUUCCUGCCACCGGCUCCUAGUUAUUUUUUUUUUAACCACCAUGUGAUUAAGGUCGGAGCUGCCUCCUCCCGACCCGCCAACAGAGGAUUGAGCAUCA	2.43
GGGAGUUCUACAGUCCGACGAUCGAAUUGAACAAAAGCGUUUCCACUGGGUUUUGCCUGUAAGAAAAAACGUACCCGAGCACAUAGAGCUUUUUAAUAGCGCUAACCAAUGCCUUUUUAGAUGUAUUUUUGAUGUAUAUAUCUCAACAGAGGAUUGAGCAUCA	0.742
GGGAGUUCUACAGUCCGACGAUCUUCAGGCACAACUGACUGGUUCACAGCAUUCCUUACAUAGUUACCUAUCAAAUGCUAGUGUAGUUAAUUUUCAGGAAACAACCAGGCAGUCAUCUUUAUCCUGUAGCUCAGUUGGAGAGUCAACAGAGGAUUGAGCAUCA	1.39
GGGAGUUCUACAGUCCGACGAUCGGCCUCCUGAACUUCUAGCUUUCAAGCUGUGGCUGUUUUAGAUACUGGUUUUAUUUUCUUUGCAGUUUUUCCCUGUUUCCCACAUUCUCUCCCCCUCUUCCCAAGGUUUGACUCAUGGAUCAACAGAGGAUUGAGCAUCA	1.29
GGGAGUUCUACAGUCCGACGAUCGACCUCCUGAACUUGGAGCUUUCCGGUUGUGGCUGUUUUAGAUACUGAUUUUCUUUUCCUUAGAGUUUUUCCCUCUUCCCUGCCUUCUCUUCCCCUGUUCCCAAGGUUUGACUUCUGGAUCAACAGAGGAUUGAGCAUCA	1.17
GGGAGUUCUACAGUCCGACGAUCAGAGGGAAACUAUUGAAUAGUAUUAAGACUCUUGUCUUCCUUUUGGGGGGGGUCCCAUAAUAGUCUACUUUUUUAAAUUUCAGAUUUCACUGCUCUUUGAAUUGAUAUUUCCAAUUUUCUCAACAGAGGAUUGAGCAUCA	1.96

Mixed results
Molecule	target	assay	test system	conditions	scale	endpoint	result
PhoQ, residues 284 288 289 292 302 303 SASVAL	PhoP, residues 12 14 15 18 19 SGWQI (Escherichia coli, UniProt P23836)	Sort-seq, item: YFP reporter	E. coli	PhoQ-PhoP variant library, with: 10 µM Mg2+	reference: high Mg2+ state, higher = stronger signaling	fold induction	0.915

Repeated from above (series 4):
Oligonucleotide	E-score
GCGAAACC	-0.0755
CAGAGCAA	-0.0499
CCTCGGAC	-0.197
CAAAGCGC	-0.146
AGAGCACT	-0.0174
AATTCCGG	-0.0946
AGCGAAGA	0.039
ACCCGAAA	0.0135
ATGTATTC	0.174
GTCGGCAC	-0.141
AACTTCAA	0.191
AGCCAATA	0.15
TCGCAGCA	-0.0192
ACACGGTG	-0.123
